Results gathered from unrelated publications.
Compare with care: the assays were run in different laboratories. “And” joins repeats or separate records; there may be more than shown.
CSNK1A1: Casein kinase I isoform alpha (CSNK1A1, Homo sapiens, UniProt P48729)
UniProt P48729, sequence (whole entry, looked up): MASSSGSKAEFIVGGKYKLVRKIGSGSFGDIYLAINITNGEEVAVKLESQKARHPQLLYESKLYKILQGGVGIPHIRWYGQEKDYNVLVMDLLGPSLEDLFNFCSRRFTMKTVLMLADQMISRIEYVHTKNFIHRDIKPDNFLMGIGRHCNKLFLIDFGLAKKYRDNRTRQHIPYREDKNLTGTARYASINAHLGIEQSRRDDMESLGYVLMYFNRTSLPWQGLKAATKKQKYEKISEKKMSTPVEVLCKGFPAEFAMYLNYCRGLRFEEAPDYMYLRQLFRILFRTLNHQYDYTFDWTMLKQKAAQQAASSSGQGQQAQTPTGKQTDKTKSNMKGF
UniProt Q15109, sequence (whole entry, looked up): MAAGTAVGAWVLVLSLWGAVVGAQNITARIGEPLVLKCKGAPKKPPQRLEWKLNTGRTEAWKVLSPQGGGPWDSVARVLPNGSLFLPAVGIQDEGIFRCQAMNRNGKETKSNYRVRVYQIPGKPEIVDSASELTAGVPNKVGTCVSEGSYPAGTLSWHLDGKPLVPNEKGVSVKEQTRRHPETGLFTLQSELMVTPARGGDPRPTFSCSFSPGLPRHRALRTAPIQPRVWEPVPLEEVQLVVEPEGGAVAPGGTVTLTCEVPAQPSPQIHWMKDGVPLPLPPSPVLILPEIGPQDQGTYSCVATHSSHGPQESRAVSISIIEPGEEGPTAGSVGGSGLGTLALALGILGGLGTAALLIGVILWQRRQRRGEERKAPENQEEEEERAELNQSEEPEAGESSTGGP
UniProt P09622, sequence (whole entry, looked up): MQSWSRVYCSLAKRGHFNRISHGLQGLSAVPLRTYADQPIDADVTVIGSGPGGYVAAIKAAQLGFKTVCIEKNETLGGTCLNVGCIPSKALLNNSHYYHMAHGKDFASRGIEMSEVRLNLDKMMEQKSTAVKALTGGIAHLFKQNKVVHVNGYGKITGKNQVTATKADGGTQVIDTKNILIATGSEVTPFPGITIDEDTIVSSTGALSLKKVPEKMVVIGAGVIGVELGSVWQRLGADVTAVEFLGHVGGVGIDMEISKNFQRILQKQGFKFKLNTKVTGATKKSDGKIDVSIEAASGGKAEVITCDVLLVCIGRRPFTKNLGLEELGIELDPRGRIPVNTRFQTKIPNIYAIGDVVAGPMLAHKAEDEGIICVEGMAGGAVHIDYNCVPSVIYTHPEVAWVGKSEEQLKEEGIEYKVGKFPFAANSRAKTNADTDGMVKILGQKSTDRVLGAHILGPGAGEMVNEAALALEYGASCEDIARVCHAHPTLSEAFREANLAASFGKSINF
UniProt Q8TDS4, sequence (whole entry, looked up): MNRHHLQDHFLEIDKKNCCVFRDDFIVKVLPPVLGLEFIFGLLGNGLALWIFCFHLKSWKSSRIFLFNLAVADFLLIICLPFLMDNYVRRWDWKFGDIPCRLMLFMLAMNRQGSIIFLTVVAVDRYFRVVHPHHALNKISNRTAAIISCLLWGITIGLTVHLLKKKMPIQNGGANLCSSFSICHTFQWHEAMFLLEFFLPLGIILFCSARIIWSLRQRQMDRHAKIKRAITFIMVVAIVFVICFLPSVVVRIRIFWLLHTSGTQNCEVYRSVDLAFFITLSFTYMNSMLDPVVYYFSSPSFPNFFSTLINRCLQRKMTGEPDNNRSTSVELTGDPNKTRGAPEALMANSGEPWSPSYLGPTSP
UniProt Q9NYL2, sequence (whole entry, looked up): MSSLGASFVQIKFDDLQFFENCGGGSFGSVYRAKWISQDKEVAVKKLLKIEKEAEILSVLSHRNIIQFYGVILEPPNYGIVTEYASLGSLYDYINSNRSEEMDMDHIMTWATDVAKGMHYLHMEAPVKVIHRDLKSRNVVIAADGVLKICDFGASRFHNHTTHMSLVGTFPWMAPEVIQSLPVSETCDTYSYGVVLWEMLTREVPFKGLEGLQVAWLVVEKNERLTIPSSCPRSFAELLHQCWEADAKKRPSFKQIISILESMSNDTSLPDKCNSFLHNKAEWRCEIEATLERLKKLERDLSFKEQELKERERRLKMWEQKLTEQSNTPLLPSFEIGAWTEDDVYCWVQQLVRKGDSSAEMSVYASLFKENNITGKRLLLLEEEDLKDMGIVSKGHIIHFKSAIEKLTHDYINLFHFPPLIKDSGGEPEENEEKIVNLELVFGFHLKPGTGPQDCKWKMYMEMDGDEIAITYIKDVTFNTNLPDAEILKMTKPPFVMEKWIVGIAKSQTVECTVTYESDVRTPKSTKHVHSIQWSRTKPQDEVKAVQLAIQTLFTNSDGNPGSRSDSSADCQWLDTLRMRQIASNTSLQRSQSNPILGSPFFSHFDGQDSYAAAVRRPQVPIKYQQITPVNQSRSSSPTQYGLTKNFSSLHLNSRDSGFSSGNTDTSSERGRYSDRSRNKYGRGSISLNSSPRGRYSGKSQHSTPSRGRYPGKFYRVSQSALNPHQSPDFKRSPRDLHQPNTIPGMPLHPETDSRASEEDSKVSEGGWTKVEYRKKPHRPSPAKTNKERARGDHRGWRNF
UniProt Q47319, sequence (whole entry, unmodified, looked up): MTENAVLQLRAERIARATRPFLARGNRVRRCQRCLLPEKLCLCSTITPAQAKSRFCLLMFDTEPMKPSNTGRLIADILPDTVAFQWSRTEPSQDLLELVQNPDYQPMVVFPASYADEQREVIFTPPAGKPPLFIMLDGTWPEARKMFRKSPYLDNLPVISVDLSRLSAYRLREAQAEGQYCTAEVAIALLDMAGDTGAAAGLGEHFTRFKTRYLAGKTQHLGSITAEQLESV
UniProt Q02763, sequence (whole entry, looked up): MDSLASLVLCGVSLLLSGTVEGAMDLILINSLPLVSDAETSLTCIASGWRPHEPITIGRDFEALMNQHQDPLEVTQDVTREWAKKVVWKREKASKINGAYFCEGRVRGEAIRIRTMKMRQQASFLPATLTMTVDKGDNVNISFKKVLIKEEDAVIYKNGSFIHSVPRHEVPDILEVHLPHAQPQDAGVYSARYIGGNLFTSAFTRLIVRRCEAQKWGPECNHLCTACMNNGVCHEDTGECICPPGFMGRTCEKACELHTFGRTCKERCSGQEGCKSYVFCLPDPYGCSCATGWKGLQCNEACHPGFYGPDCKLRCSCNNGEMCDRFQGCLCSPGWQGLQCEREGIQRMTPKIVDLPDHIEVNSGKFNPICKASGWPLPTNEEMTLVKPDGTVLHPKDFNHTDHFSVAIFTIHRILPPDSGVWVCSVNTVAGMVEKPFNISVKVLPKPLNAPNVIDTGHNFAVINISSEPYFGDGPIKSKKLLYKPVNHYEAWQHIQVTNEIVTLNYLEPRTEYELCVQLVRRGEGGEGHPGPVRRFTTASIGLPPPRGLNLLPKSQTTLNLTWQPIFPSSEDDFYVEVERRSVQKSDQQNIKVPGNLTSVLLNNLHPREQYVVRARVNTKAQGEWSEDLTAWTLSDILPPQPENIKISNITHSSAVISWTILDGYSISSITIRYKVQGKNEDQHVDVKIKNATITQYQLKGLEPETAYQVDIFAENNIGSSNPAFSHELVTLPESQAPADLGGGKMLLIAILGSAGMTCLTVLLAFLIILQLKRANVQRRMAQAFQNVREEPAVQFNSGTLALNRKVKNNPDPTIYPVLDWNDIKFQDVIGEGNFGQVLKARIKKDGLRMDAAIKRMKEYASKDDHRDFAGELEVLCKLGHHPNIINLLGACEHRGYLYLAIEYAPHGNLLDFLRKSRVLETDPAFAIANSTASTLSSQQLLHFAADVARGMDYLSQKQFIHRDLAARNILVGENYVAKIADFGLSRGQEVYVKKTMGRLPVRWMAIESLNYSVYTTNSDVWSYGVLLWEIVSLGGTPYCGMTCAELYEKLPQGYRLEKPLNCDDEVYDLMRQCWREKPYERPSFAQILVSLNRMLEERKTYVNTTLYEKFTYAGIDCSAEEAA
UniProt P07339, sequence (whole entry, looked up): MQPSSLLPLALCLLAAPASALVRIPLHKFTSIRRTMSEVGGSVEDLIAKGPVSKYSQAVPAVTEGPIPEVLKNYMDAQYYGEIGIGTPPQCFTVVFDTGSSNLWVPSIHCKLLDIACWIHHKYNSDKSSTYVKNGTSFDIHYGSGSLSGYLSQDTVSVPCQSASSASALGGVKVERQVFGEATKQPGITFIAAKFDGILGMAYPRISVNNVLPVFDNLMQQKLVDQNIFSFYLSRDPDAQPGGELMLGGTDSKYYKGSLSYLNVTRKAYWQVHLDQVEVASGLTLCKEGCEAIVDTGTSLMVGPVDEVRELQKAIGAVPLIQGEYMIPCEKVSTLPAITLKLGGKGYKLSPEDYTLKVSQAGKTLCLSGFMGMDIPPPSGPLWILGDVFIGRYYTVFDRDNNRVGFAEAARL
UniProt P00698, sequence (whole entry, looked up): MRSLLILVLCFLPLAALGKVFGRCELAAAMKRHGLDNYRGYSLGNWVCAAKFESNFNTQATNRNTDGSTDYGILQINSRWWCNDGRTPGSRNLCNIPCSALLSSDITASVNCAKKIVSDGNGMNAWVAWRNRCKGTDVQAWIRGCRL
UniProt P40261, sequence (whole entry, looked up): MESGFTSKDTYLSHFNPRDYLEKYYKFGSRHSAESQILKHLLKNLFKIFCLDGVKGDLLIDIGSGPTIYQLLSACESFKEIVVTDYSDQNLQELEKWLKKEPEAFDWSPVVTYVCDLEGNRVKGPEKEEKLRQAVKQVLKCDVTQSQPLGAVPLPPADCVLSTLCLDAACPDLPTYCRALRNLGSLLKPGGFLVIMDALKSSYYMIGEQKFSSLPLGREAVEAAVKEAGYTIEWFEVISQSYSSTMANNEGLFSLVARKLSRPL
UniProt P10997, sequence (whole entry, looked up): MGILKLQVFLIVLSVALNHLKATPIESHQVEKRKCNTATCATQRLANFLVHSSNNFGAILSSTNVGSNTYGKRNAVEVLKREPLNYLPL

The Kd of CNC(=O)c1ccc(OC)c(Br)c1 is reported as > 50 µM (CSNK1A1; binding, SPR).
With NC(=O)c1ccc[n+]([C@@H]2O[C@H](COP(=O)([O-])OP(=O)(O)OC[C@H]3O[C@@H](n4cnc5c(N)ncnc54)[C@H](O)[C@@H]3O)[C@@H](O)[C@H]2O)c1 the Kd was 1.36 µM (DLD (Homo sapiens, UniProt P09622); binding, SPR).
NC(=O)c1cccnc1 gave a Kd of > 5000 µM (NNMT (Homo sapiens, UniProt P40261); binding, NMR).
CC(=O)N[C@H]1[C@H](O[C@H]2[C@H](O)[C@@H](NC(C)=O)C(O)O[C@@H]2CO)O[C@H](CO)[C@@H](O[C@@H]2O[C@H](CO)[C@@H](O)[C@H](O)[C@H]2NC(C)=O)[C@@H]1O (stereo partly shown) gave a Kd of 14.8 µM (Lysozyme C (LYZ, Gallus gallus, UniProt P00698); binding).
CCCN1CCN(c2ccc(-c3cncc(Cl)c3N3CCC4(CCNC4=O)CC3)cc2)CC1 gave a Kd of > 21.4 µM (MAP3K20 (Homo sapiens, UniProt Q9NYL2); cell-free assay; lysate).
c1ccc(Nc2nc3c(s2)Cc2ccccc2-3)cc1 has a Kd of 43.6 µM (CSNK1D (Homo sapiens, UniProt P48730); binding, SPR).
The Kd of C[S+](CC[C@H](N)C(=O)O)C[C@H]1O[C@@H](n2cnc3c(N)ncnc32)[C@H](O)[C@@H]1O (stereo partly shown) is reported as 390 µM (tapT (Escherichia coli, UniProt Q47319, D137N); binding, ITC).
The Kd of N#Cc1ccc2c(CN3CCOCC3)cc(-c3ccc([C@H]4CCC(=O)N4)cc3)nc2c1 is reported as ~0.0003 µM and 0.0003 µM (AGER (Homo sapiens, UniProt Q15109); binding, fluorescence).
c1ccc(CNCc2ccc(CN3CCCNCCNCCCNCC3)cc2)nc1 has a Kd of > 50 µM (CSNK1A1; binding, SPR).
With C=CC1=C(C)C2=Cc3c(C=C)c(C)c4[n]3[Fe][n]3c(c(C)c(CCC(=O)O)c3=CC3=NC(=C4)C(C)=C3CCC(=O)O)=CC1=N2 the Kd was ~1 µM (HCAR2 (Homo sapiens, UniProt Q8TDS4); binding).
With N#Cc1ccc(O)cc1F the Kd was > 50 µM (CSNK1A1; binding, SPR).
With Cc1cnc(-c2ccc(-c3ccc(NC(=O)Nc4c(F)cc(F)cc4F)cc3F)c3c2C(=O)NC3)[nH]1 the Kd was 0.018 µM (TEK (Homo sapiens, UniProt Q02763); binding, competition with immobilised ligand).
The Kd of CC(C)CC(=O)N[C@H](C(=O)N[C@H](C(=O)N[C@@H](CC(C)C)[C@@H](O)CC(=O)N[C@@H](C)C(=O)N[C@@H](CC(C)C)[C@@H](O)CC(=O)NCCOCCC(=O)NCCCC[C@H](NC(=O)CN1CCN(CC(=O)O)CCN(CC(=O)O)CC1)C(=O)O)C(C)C)C(C)C is reported as 3.2 µM (Cathepsin D (CTSD, Homo sapiens, UniProt P07339); binding, SPR).
For c1cc(CN2CCCNCCNCCCNCC2)ccc1CN1CCCNCCNCCCNCC1, the Kd was > 50 µM (CSNK1A1; binding, SPR).
Nc1ncnc2c1ncn2[C@@H]1O[C@H](COP(=O)(O)OP(=O)(O)OP(=O)(O)O)[C@@H](O)[C@H]1O gave a Kd of 0.04 µM (dnaA (Escherichia coli, UniProt P03004, G79D); binding).
The Kd of C[C@@H]1O[C@@H](OC[C@H]2O[C@@H](Oc3cc(O)c4c(c3)O[C@H](c3ccc(O)cc3)CC4=O)[C@H](O)[C@@H](O)[C@@H]2O)[C@H](O)[C@H](O)[C@H]1O is reported as 5.49 µM (IAPP (Homo sapiens, UniProt P10997); binding, ITC).
